Experimental data collected from several papers.
Organism: Pseudomonas aeruginosa

C[C@H](N)C(=O)N[C@H](C(=O)N[C@@H](CS)C(=O)N[C@@H](Cc1ccc(O)cc1)C(=O)N[C@@H](CS)C(=O)N[C@@H](CCCNC(=N)N)C(=O)N[C@H](C(=O)NCC(=O)N[C@@H](CCCNC(=N)N)C(=O)O)[C@@H](C)O)[C@@H](C)O  MIC (broth turbidity; ATCC 27853): 50 µM
CNC(C)C1CCC(N)C(OC2C(N)CC(N)C(OC3OCC(C)(O)C(NC)C3O)C2O)O1 (stereo not shown)  MIC (broth microdilution, absorbance; clinical isolate P.A301, RPMI with 1640% FBS; 24 h, 37 °C): 32 µM
N=C(N)c1ccc(OCc2ccc(Br)cc2COc2ccc(C(=N)N)cc2)cc1  MIC (ATCC 27853; compound alone): 200 µg/mL
NC[C@H]1O[C@H](O[C@H]2[C@H](O)[C@@H](O[C@H]3O[C@H](CO)[C@@H](O)[C@H](N)[C@H]3O)[C@H](N)C[C@@H]2N)[C@H](O)[C@@H](O)[C@@H]1O  MIC (broth microdilution; CMCC 10104): 64.3 µM
CNC(C)C1CCC(N)C(OC2C(N)CC(N)C(OC3OCC(C)(O)C(NC)C3O)C2O)O1 (stereo not shown)  MIC (clinical isolate RKI-No_493/15): > 8 µg/mL
O=C(Cc1ccccc1)N[C@@H]1C(=O)N2C(C(=O)O)=C(CSc3cccc4cccnc34)CS(=O)(=O)[C@H]12  MIC: > 128 µg/mL
CC1(C)S[C@@H]2[C@H](NC(=O)[C@H](N)c3ccc(O)cc3)C(=O)N2[C@H]1C(=O)O  MIC (broth microdilution; clinical isolate, Mueller-Hinton broth; 24 h, 37 °C): > 400 µM
Cc1cc(C#N)ccc1C(=O)Nc1ccc(C(=O)N[C@@H](CC(N)=O)C(=O)Nc2ccc(C(=O)Nc3ccc(C(=O)Nc4ccc(C(=O)O)cc4)c(O)c3OC(C)C)cc2)cc1  MIC (PA14 ΔmexAB): 2 µg/mL
C[C@@H](O)[C@H]1C(=O)N2C(C(=O)O)=C(S[C@@H]3CN[C@H](C(=O)N(C)C)C3)[C@H](C)[C@H]12  MIC (broth microdilution, MH medium; KCCM 11328; 16 h, 37 °C, growth inhibition over 99%): 1 µM
CC1(C)S[C@@H]2[C@H](NC(=O)[C@H](N)c3ccccc3)C(=O)N2[C@H]1C(=O)O  MIC (ATCC BAA-2108, resistant; 18 h, 37 °C, LED light 10 min, 1.57 mW): > 128 µM
N=C(N)c1cccc(OCc2ccc(COc3cccc(C(=N)N)c3)cc2)c1  MIC (ATCC 27853; compound alone): > 200 µg/mL
NC[C@H]1O[C@H](O[C@H]2[C@H](O)[C@@H](O[C@H]3O[C@H](CO)[C@@H](O)[C@H](N)[C@H]3O)[C@H](N)C[C@@H]2N)[C@H](O)[C@@H](O)[C@@H]1O  MIC (broth microdilution; PAO1): 54.9 µM
CC(C)(O/N=C(\C(=O)N[C@@H]1C(=O)N2C(C(=O)[O-])=C(C[n+]3ccccc3)CS[C@H]12)c1csc(N)n1)C(=O)O  MIC (R16-49 PER-producing isolate): > 128 µg/mL
O=C(Cc1ccccc1)N[C@@H]1C(=O)N2C(C(=O)O)=C(CSc3cccc4cccnc34)C[S+]([O-])[C@H]12 (stereo partly shown)  MIC (27853): > 128 µg/mL
N=C(N)c1ccc(OCc2cc(COc3ccc(C(=N)N)cc3)cc(-c3ccccc3)c2)cc1  MIC (ATCC 27853; compound alone): 100 µg/mL
CC[C@H](C)CCCCC(=O)N[C@@H](CCN)C(=O)N[C@H](C(=O)N[C@@H](CCN)C(=O)N[C@H]1CCNC(=O)[C@H]([C@@H](C)O)NC(=O)[C@H](CCN)NC(=O)[C@H](CCN)NC(=O)[C@H](CC(C)C)NC(=O)[C@@H](CC(C)C)NC(=O)[C@H](CCN)NC1=O)[C@@H](C)O  MIC (broth microdilution; ATCC 13883, cation-adjusted Mueller-Hinton broth): 0.428 µM
CCN1CCN(C(=O)N[C@@H](C(=O)N[C@@H]2C(=O)N3[C@@H]2SC(C)(C)[C@@H]3C(=O)O)c2ccccc2)C(=O)C1=O  MIC (R13-23 PER-producing isolate): > 128 µg/mL
O=C(O)c1cn(C2CC2)c2cc(N3CCNCC3)c(F)cc2c1=O  MIC (CIP 27853, Mueller Hinton broth; overnight, 37 °C): > 512 µg/mL
FC(F)(F)Oc1ccc(OCCn2c(CNCC34CC5CC(CC(C5)C3)C4)nc3ccccc32)cc1  MIC (ATCC 27853): > 128 µg/mL
C[C@@H](O)[C@H]1C(=O)N2C(C(=O)O)=C(SCCN=CN)C[C@H]12  MIC (S13-35 PER-producing isolate): 0.5 µg/mL
CN(C)c1ccc2nc3ccc(=[N+](C)C)cc-3sc2c1  MIC (ATCC 27853; 18 h, 37 °C, LED irradiation 10 min): > 128 µM
CC(C)Oc1c(NC(=O)c2ccc(NC(=O)[C@H](CC(N)=O)NC(=O)c3ccc(NC(=O)c4ccc(C#N)c(Cl)c4)cc3)cc2)ccc(C(=O)Nc2ccc(C(=O)O)cc2)c1O  MIC (PA14 ΔmexAB): 0.25 µg/mL
CC[C@H](C)[C@H](NC(=O)[C@H](CCCCN)NC(=O)[C@H](CCC(=O)O)NC(=O)[C@H](CCCCN)NC(=O)[C@H](CO)NC(=O)[C@H](CCCCN)NC(=O)[C@H](CCCNC(=N)N)NC(=O)[C@H](Cc1ccccc1)NC(=O)[C@H](Cc1ccccc1)NC(=O)[C@H](CC(=O)O)NC(=O)CNC(=O)[C@H](CC(C)C)NC(=O)[C@@H](N)CC(C)C)C(=O)NCC(=O)N[C@@H](CCCCN)C(=O)N[C@@H](CCC(=O)O)C(=O)N[C@@H](Cc1ccccc1)C(=O)N[C@@H](CCCCN)C(=O)N[C@@H](CCCNC(=N)N)C(=O)N[C@H](C(=O)N[C@H](C(=O)N[C@@H](CCC(N)=O)C(=O)N[C@@H](CCCNC(=N)N)C(=O)N[C@H](C(=O)N[C@@H](CCCCN)C(=O)N[C@@H](CC(=O)O)C(=O)N[C@@H](Cc1ccccc1)C(=O)N[C@@H](CC(C)C)C(=O)N[C@@H](CCCNC(=N)N)C(=O)N[C@@H](CC(N)=O)C(=O)N[C@@H](CC(C)C)C(=O)N[C@H](C(=O)N1CCC[C@H]1C(=O)N[C@@H](CCCNC(=N)N)C(=O)N[C@H](C(=O)N[C@@H](CCC(=O)O)C(=O)N[C@@H](CO)C(=O)O)[C@@H](C)O)C(C)C)[C@@H](C)CC)C(C)C)[C@@H](C)CC  MIC (CMCC 10104; highest concentration 50 µM): 22.3 µM
c1ccc(OCCn2c(CNC34CC5CC(CC(C5)C3)C4)nc3ccccc32)cc1  MIC (ATCC 27853): > 128 µg/mL
NCCCC[C@H](NC(=O)[C@H](Cc1ccccc1)NC(=O)[C@H](CCC(N)=O)NC(=O)[C@H](Cc1ccccc1)NC(=O)[C@H](CCC(N)=O)NC(=O)[C@@H](N)Cc1ccccc1)C(N)=O  MIC (broth microdilution, optical density): 520 µM

Some of these lines once more:
CNC(C)C1CCC(N)C(OC2C(N)CC(N)C(OC3OCC(C)(O)C(NC)C3O)C2O)O1 (stereo not shown)  MIC (clinical isolate RKI-No_493/15): > 8 µg/mL
O=C(Cc1ccccc1)N[C@@H]1C(=O)N2C(C(=O)O)=C(CSc3cccc4cccnc34)CS(=O)(=O)[C@H]12  MIC: > 128 µg/mL
CC1(C)S[C@@H]2[C@H](NC(=O)[C@H](N)c3ccc(O)cc3)C(=O)N2[C@H]1C(=O)O  MIC (broth microdilution; clinical isolate, Mueller-Hinton broth; 24 h, 37 °C): > 400 µM
